Measured values gathered from unrelated publications.
Numbered parts are unrelated; each lists some results of a single study. Changes are numbered by the printed parent chain.

Study 1 — technique: RNA Bind-n-Seq; form: RNA; medium: in vitro; tested at: 365 nM; baseline: no-protein control; direction: higher = stronger binding; measurement: RBNS enrichment (R)
Target: RNA binding protein fox-1 homolog 2, RRM domain, GST-SBP tag (RBFOX2, Homo sapiens, UniProt O43251-10, residues 100-194)
Notes: natural RNA segment, single round, ends assumed
All sequences stand within: GGGAGUUCUACAGUCCGACGAUC … UGGAAUUCUCGGGUGCCAA
Construct (chain): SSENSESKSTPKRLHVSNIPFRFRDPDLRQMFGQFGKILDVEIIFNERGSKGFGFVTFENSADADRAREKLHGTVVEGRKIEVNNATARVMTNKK
UUUGUUUGUUUGUUUGUUUGUUUGUUUUUGGCCCCCACGACAAGUCUUCUACUCUAGAAGAAAGACUUUGGAAGCAGCUGCUGCUGCUGCCACCACUCCUGUCAGCAAGU: 4.33
UCUUGGGCAGACCAAACUCAGGCCUGAUGCAACCAAGUUGCCCCUGGGUCCUAGCGACACCUCCUCACCCAAAUUUUCCUGUCUUCAAUAUCCUCAACAGACAAAAGAAG: 0.196
GUCUGUGCCCGCGGAGACCUCCUCUGACCAAGGGGCACUAGUAUGCCUUGCGCUAUCAUGACUGACUGGCCCAGUAUGAUUCUGUUGUCGCUGAUCUCCCGGAGGAGGAG: 0.943
CAGAAAAUCUGGAAACAGUUGCAGGUGUUGGGAGGAAGAUGAAAUCGAGCUGUCUUUUAACUUUUGUAUGUGUUUUAUCAGAAUUUGCUGGACUAUGCUGGCAAGGACUU: 0.692
UGCACUUGGGUUCCCGCCCAGGAAGGCCUUUUGCAAGAAGGAGAGGAAUGGGGGAGAGGACGUGAGGGACCACCCCCACCCACACAGCUGCCGCAGCAUCUCACACCCCG: 0.433
AAGUCAUUUUUUAAAAAUUUCUAAUGAAAGAAGUUUGUGUUCUGUCCAAAAAGUCACUGAACUCAUACUUCAGUACAUAUACAUGUAUAAGGCACACUGUAGUGCUUAAU: 0.414
UCAGUCUGCUGUGCCUCCAGACUGCAGAGCUCUCAGAACCCAGAACAGAGACGAAAAGGCUACCUCUCCUACCCAAGUUAAGUGUUCAAAGGGGAUGUGAGGGCCUCCAC: 0.406
AAAAUCAAGUGUUAGGAAAUUUCAUGGUCUUACCUACAAUAACUUUUAUUUUGGAAUUGAACUAUUAUUAAAUUGUAUCUAAUCCUGGAUUACAGUUUAAUUAAUUAUUC: 0.454

Study 2 — technique: protein binding microarray; form: double-stranded DNA, one strand shown; medium: in vitro; tested at: not given; baseline: not given; direction: higher = stronger binding; measurement: E-score
Target: Histone acetyltransferase KAT6A, both winged helices, GST fusion (KAT6A, Homo sapiens, UniProt Q92794, residues 1-181)
Notes: 8-mer, flanks averaged, mean of 2 arrays, mostly near background
Target sequence (chain): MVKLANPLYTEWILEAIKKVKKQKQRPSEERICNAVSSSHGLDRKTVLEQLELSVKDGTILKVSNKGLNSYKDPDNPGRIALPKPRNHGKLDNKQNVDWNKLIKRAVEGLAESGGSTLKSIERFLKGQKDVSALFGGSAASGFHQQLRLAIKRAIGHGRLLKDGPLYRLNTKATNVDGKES
CTCAGTCC: -0.0972
GAATAATA: -0.0984
AATCCGAG: 0.0775
GTCGGCAA: 0.249
TGACCGCA: 0.14
CAAATCTG: -0.0801
TAGGATGA: -0.0317
GTTTACAA: -0.0213
CAGAATTC: -0.0305
AAGAAGGT: -0.105
TAATCTCA: -0.0951
AAATAAGC: -0.0716
AGCGGTTA: 0.199
GATATTCC: 0.0112
AAACACTG: 0.056
GTAATCAC: -0.0671
GCCAAGAA: -0.101
GACCCGGC: 0.23
ATACACCG: 0.147
TAGACACA: -0.101

Study 3 — technique: RNA Bind-n-Seq; form: RNA; medium: in vitro; tested at: not given; notes: RNA with constant flanks, ends assumed; baseline: input RNA pool; direction: higher = stronger binding; measurement: bound/input enrichment
Target: RING finger protein unkempt homolog, zinc fingers 1-6, GST-SBP tag (UNK, Homo sapiens, UniProt Q9C0B0, residues 30-357)
All sequences stand within: GGGAGUUCUACAGUCCGACGAUC … CAACAGAGGAUUGAGCAUCA
Target sequence (chain): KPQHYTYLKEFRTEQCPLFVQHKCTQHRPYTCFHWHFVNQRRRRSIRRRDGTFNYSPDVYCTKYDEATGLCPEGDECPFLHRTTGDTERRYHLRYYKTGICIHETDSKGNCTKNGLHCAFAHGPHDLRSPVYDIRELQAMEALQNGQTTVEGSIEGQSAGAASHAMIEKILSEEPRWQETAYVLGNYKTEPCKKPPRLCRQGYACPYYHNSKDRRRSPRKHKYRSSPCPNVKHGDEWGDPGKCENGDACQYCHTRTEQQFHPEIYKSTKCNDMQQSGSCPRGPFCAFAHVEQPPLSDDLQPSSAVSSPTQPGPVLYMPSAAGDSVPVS
GAGUCUUCACCAACCACCUUACUUGCUACAAAGAAAAAUAUUGGACGAUUUCAUCCCUAUACCCGAUAUGAAAAUAUAACUUUCAAUUGCUGCAAUCACUGCCGGGGAGAACUGAUUGCC: 0.595 ratio
CGCGGCCCCGCGACCCUCGGGGGUCGCUGAGAGGCCCGGCGUCGGCGCCGCAGCCGUCCCGGAUUUCUGUCCAAAGGCGUCCCUGGCGUCCCCAGCCCGAAGCUCCAAGCUCGGGGCUGC: 0.0734 ratio
GUUAGAAAAAGAAUUACAGCUUUGCAAUAUAACUAAUUGUUUCGCAUAAUUCUGAAUGUAACCGAUAUGAAUAAUCAGCCUGUGUUUUUAAUGAACUUAUUUGUAUUUUCCCAAUCAUUU: 0.437 ratio
GUCACAAGACCAAUAUUUGGUAUACUGGGCACAAUCCAUCUGGUGGCAGGUAAUUAUCUUACCGUCAUUACCAAAAAGAUAAAAGUAGGUGAAUUUUUCAGUCAUGUAGUCUGGAAAGCA: 0.98 ratio
AACGGCGCCCCAGCGUGUGCCCAGAAACUCUAUGCAGAACUGUGCCAGGGCAUCGUGGACACCGCCAUAUCCAGUGUCUUCCCACCCCCGGACACGGAGCAGGUGCCGCAGCAGCCGGCU: 0.119 ratio
CUCAACCAUCCAAAUGUAAUAAAAUAUUAUGCAUCAUUCAUUGAAGAUAAUGAACUAAACACCGUUUUGGAACUAGCAGAUGCUGGCGACCUAUCCAGAAUGAUCAAGCAUUUUAAGAAG: 0.171 ratio
UCAUUUAUUAGAUACAAUAGCCAAAGAAUAAAGUAAAAACUCCUUUUUACCUUGCUGCCCAACCGGAAUCAGAUGACUUAAAUACUAGGCCUUACUAGGGUCUCUUGGCUUUGGAGUUUU: 13.6 ratio
AAGAAAUUAUUAAACAAAACAAGGGGGGCAAUAAAUGUAUAUAACAUUAAUAAUGUCGCGCCGGUGCCGGUUCCUGGAUGCAUUUGGAUGUACAGACUGACUGGGGGACUGUAUUGCGAU: 0.808 ratio

Study 4 — technique: DHFR PCA, deep sequencing; medium: yeast; with: (+)-ABA 17 µM; baseline: wild-type fitted maximum; direction: higher = stronger binding; measurement: relative binding score
Target: ABI1, truncated, D143A, DHFR fusion (Arabidopsis thaliana)
Notes: methotrexate growth selection, single substitutions
Parent: PYL1, truncated, DHFR fusion (Arabidopsis thaliana); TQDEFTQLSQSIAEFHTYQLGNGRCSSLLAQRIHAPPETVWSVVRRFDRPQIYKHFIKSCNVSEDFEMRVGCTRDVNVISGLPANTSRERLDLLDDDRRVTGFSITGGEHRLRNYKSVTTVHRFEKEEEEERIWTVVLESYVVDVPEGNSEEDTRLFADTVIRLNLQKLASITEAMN; partner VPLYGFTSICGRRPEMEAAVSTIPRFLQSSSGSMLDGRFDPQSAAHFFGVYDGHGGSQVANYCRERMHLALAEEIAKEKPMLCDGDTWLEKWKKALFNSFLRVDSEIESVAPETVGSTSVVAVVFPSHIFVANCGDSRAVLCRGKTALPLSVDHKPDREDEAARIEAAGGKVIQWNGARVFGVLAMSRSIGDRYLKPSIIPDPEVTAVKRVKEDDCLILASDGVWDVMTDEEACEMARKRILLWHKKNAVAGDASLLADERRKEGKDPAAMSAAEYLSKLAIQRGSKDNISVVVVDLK
L112H: -12.2%
Y53D: 1.37%
N149E: 13%
M176S: 79.2%
T120H: 3.08%
V78P: 10.8%
N114I: 2.13%
C72D: 83%
I57T: 15.4%
E147S: 75.7%
V100P: -18.6%
K54W: -1.06%
E89W: -4.83%
N114Q: 14.5%
V161R: -3.58%
L138A: 4.6%
R111C: 23.8%
Q2L: 87.5%
L20C: 87.6%
P83I: -5.25%
E64T: 83.8%
T39E: 73.6%
